Results collected from several papers.
Numbered parts are unrelated; each lists some results of a single study. Substitutions count along the parent as printed.

Study 1
Target: CCNE2, cyclin fold, Cln2 fusion (human)
Method: yeast growth competition, sequencing
Matrix: yeast
Setting: weak parent motif
Reference: not given
Reading: higher = stronger binding
Quantity: normalised enrichment score
Parent: ORC1 docking peptide (human); PRARKRLELGNLG; partner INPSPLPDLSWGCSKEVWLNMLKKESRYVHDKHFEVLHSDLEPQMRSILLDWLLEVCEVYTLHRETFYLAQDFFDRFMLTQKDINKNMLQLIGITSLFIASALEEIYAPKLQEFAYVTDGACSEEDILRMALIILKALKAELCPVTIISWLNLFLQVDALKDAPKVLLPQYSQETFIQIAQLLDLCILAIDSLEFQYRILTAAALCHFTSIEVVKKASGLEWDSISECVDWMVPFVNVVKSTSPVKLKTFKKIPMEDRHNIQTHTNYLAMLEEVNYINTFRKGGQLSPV
Change = PRNRKRLELGNLG [A3N]; result = 1.19
Change = PRARKRLEDGNLG [L9D]; result = 0.513
Change = PVARKRLELGNLG [R2V]; result = 0.75
Change = PRARKRLELGELG [N11E]; result = -0.53
Change = PYARKRLELGNLG [R2Y]; result = -0.21
Change = PRARKRCELGNLG [L7C]; result = 0.459

Study 2
Target: Histone acetyltransferase KAT6A, winged helix 1, GST fusion (KAT6A, Homo sapiens, UniProt Q92794, residues 1-85)
Method: protein binding microarray
Molecule type: double-stranded DNA, one strand shown
Matrix: in vitro
Tested at: not given
Setting: 8-mer, flanks averaged, mean of 2 arrays, mostly near background
Reference: not given
Reading: higher = stronger binding
Quantity: E-score
Construct (chain): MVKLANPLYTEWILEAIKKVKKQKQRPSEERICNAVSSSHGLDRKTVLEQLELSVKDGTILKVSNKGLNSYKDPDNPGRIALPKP
Sequence = CCAGAGGG; result = -0.206
Sequence = AAAATCTA; result = -0.139
Sequence = AGCTGGCC; result = 0.11
Sequence = CAGGGATG; result = -0.0855
Sequence = CGTTGCGA; result = 0.0715
Sequence = ATAACAAA; result = -0.196
Sequence = GAAGACAC; result = 0.0467

Study 3
Target: Ras GTPase-activating protein-binding protein 1, C-terminal RGG region (G3BP1, Homo sapiens, UniProt Q13283)
Chain of UniProt Q13283 (whole entry, looked up): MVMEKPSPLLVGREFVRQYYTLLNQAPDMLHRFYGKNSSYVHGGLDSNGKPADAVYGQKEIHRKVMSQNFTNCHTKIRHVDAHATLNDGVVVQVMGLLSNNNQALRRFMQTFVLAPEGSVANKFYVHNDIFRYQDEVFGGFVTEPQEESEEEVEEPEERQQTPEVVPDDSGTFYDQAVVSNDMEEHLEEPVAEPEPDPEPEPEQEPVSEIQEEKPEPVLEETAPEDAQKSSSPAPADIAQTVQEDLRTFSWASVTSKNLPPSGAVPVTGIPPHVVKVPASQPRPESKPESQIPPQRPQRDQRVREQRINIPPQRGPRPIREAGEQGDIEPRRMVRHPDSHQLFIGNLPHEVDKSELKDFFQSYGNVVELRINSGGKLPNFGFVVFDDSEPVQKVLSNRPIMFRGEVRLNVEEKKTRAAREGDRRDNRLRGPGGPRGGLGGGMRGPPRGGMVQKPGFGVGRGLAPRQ
Method: RNA Bind-n-Seq
Molecule type: RNA
Matrix: in vitro
Tested at: 1 µM
Setting: whole 134-nt RNA, ends assumed
Added: 150 mM KCl
Reference: input library
Reading: higher = stronger binding
Quantity: log2 enrichment
Sequence = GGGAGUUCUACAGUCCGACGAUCCUGUGCUACACAUCGUAUGUACCGAAUCGGGGCCCCCCCGGCCCCCCCGGCCCCCCCGGGGAAAGUAUUAUGUUACGCCGUUCGGAUCUGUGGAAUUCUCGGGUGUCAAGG; result = -1.98
Sequence = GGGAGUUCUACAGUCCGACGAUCCAAGUCCUGUGCUACACAUCGUAUGUACCGAAUCGGAGGUUUUUUUGGUUUUUGGAAAGUAUUAUGUUACGCCGUUCGGAUCUGCACUUCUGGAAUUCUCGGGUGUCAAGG; result = -1.91
Sequence = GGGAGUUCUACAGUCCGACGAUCGGAGUGCCGUGAGCAGGCCGCGGGAACGUCGCCGUCACCUUGUCUCGGGGCCUCGGCGCUGCUUCCCGCCAAAACACGUUUACCGCGCGCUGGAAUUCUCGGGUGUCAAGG; result = -2.36
Sequence = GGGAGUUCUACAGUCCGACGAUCUCAAGUCCUGUGCUACACAUCGUAUGUACCGAAUCGGGAAAGGAAAGGGGAAAGGAAAGUAUUAUGUUACGCCGUUCGGAUCUGCACUUCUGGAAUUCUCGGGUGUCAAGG; result = -1.54
Sequence = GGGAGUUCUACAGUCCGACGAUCUGGCUGCAGGCGCACCCCGGCAGGAUUUUGCCUCCGCUGUCGCCCCCGCAGCACCGCUACUCGGAGGGCGAGCGGACCUCCCUGGAGAAGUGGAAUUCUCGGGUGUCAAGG; result = -0.945

Other studies, line by line
Substance = PhoQ, residues 284 288 289 292 302 303 SLANIV; target = PhoP, residues 12 14 15 18 19 VQGLL (Escherichia coli, UniProt P23836); test = Sort-seq, measured: YFP reporter; system = E. coli; conditions = PhoQ-PhoP variant library, added: 10 µM Mg2+; scale = reference: high Mg2+ state, higher = stronger signaling; quantity = fold induction; result = 16

Repeated from above (study 2):
Sequence = CGTTGCGA; result = 0.0715
Sequence = CCAGAGGG; result = -0.206
